Experimental data collected from several papers.
Every numbered part comes from another study and shows a few of its results, in no order. “And” joins repeats or separate records; there may be more than shown. ± gives the spread as reported.

Study 1 — action: agonist; notes: no glutamate
Target: Metabotropic glutamate receptor 2 (GRM2, Homo sapiens, UniProt Q14416)
Chain of UniProt Q14416 (whole entry, looked up): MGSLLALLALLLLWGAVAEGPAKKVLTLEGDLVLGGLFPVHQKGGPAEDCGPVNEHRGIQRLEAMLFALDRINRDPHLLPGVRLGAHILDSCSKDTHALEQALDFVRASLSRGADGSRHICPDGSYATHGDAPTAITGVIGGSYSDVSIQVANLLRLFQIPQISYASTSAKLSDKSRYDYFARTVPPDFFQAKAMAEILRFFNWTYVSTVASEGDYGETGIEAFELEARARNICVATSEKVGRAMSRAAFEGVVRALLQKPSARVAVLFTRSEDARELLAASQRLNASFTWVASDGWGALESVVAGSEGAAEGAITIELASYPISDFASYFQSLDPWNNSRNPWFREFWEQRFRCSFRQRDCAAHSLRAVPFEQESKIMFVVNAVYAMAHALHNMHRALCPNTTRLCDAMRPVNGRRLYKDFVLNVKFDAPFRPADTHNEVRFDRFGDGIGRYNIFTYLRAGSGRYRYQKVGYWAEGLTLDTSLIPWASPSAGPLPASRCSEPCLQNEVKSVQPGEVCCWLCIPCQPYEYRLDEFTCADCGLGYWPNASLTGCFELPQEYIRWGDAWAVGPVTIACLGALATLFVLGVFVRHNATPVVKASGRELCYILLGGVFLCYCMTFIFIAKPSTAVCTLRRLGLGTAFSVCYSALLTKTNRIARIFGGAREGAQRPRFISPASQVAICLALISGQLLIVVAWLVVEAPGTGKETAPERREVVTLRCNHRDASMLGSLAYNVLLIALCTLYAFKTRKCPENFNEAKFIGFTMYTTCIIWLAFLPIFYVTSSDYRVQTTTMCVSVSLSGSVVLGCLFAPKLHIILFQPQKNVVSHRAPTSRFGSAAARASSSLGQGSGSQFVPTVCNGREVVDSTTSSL
CCOCc1nnc2c(C(F)(F)F)c(-c3ccc4[nH]ccc4c3)ccn12 has an Emax of 54%.
FC(F)(F)c1c(-c2ccc3c(ccn3-c3cccnc3)c2)ccn2c(CC3CC3)nnc12 has an Emax of 64%.
Cc1ccc(Oc2ccc(-c3ccn4c(CC5CC5)nnc4c3C(F)(F)F)cc2F)c(C)n1 gave an Emax of 101%.
N#Cc1c(-c2ccc(OCC3CC3)c(Cl)c2)ccn2c(CC(F)(F)F)cnc12 has an Emax of 30%.

Study 2 — read-out: enzyme activity; action: inhibitor
Target: Cyclin-dependent kinase 2, with cyclin A (CDK2, Homo sapiens, UniProt P24941)
With Cc1cccc(-c2ccc3nc(NC(=O)C4CCC4)nn3c2)c1 the IC50 was over 100 µM.
For O=C(Nc1nc2ccc(-c3cccc4ccccc34)cn2n1)C1CCCCC1, the IC50 was over 100 µM.
Cc1cccc(-c2ccc3nc(NC(=O)c4ccccc4)nn3c2)c1 gave an IC50 of over 100 µM.
With COc1ccc(-c2ccc3nc(NC(=O)C4CCCCC4)nn3c2)cc1C the IC50 was over 100 µM.

Further values, each from its own experiment
Under “seizure latency increase”, Cc1ccc(C(=O)N/N=C/c2cc(Br)ccc2OCC(=O)O)cc1 is recorded as 117% (item: latency to stage 3; male mice, pilocarpine-induced seizures; oral, 20 mg/kg, dosed 30 min before pilocarpine, with: pilocarpine 300 mg/kg i.p.; reference: pilocarpine vehicle group).
Under “extra electrons per lipid”, NCCCN1CC(=O)N(CC(c2ccccc2)c2ccccc2)CC(=O)N(CCCN)CC(=O)N(CC(c2ccccc2)c2ccccc2)CC(=O)N(CCCN)CC(=O)N(CC(c2ccccc2)c2ccccc2)CC1=O is recorded as 82 ± 5 (X-ray reflectivity; DPPG monolayer headgroups).
Under “TNF-alpha level reduction”, O=C(O)COc1ccc(Br)cc1C=NNC(=O)Cc1ccccc1 (mixture of isomers) is recorded as 56.9% and 57% (ELISA; mouse, pilocarpine epilepsy model, hippocampus; oral, 20 mg/kg; reference: pilocarpine group).
For O=C(O)COc1ccc(Br)cc1/C=N/NC(=O)c1ccc(Cl)cc1, the seizure severity was 2.4 ± 0.52 (Racine scale 0-5; male mice, pilocarpine-induced seizures; oral, 20 mg/kg, 1 h after pilocarpine, unit not given, with: pilocarpine 300 mg/kg i.p.; higher = more severe).
For O=C(O)COc1ccccc1/C=N/NC(=O)CNc1ccc(Cl)cc1, “latency to forelimb clonus” read 12.4 ± 0.34 min (mouse, pilocarpine-induced seizures; oral, 20 mg/kg, with: pilocarpine 300 mg/kg i.p.).

Excerpt of the above (further values, each from its own experiment):
For O=C(O)COc1ccccc1/C=N/NC(=O)CNc1ccc(Cl)cc1, “latency to forelimb clonus” read 12.4 ± 0.34 min (mouse, pilocarpine-induced seizures; oral, 20 mg/kg, with: pilocarpine 300 mg/kg i.p.).
